Measured values gathered from unrelated publications.
Every numbered part comes from another study and shows a few of its results, in no order.

Study 1 — method: RNA Bind-n-Seq; molecule type: RNA; sample: in vitro; concentration: 200 nM; notes: whole 134-nt RNA, ends assumed; added: 150 mM LiCl; baseline: input library; direction: higher = stronger binding; quantity: log2 enrichment; each molecule: 7-deaza-guanosine replaces G
Target: Fragile X messenger ribonucleoprotein 1, C-terminal low-complexity region (Fmr1, Mus musculus, UniProt P35922)
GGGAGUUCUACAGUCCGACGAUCUUCCUCAAGUCCUGUGCUACACAUCGUAUGUACCGAAUCGGAGGUGGUGGAAAGUAUUAUGUUACGCCGUUCGGAUCUGCACUUCCAGCAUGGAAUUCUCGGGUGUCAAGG: -1.63
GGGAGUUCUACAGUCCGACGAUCUCAAGUCCUGUGCUACACAUCGUAUGUACCGAAUCGGGGUUGGGUUGGGUUGGGAAAGUAUUAUGUUACGCCGUUCGGAUCUGCACUUCCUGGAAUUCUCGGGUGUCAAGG: -0.582
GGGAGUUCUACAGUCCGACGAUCGUCCUGUGCUACACAUCGUAUGUACCGAAUCGGGGAAAGGGGUUUUUGGGGUUUGGGGAAAGUAUUAUGUUACGCCGUUCGGAUCUGCACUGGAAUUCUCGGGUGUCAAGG: -1.54
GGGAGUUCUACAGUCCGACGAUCUCCUGUGCUACACAUCGUAUGUACCGAAUCAAAGUGUGUGUGUGUGUGUGUGUGUGAAAAAAGUAUUAUGUUACGCCGUUCGGAUCUGCAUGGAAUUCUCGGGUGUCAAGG: -0.525
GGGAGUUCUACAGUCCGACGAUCAAGUCCUGUGCUACACAUCGUAUGUACCGAAUCGGCCCCGGGGCCCCGGCCCCGGGGAAAGUAUUAUGUUACGCCGUUCGGAUCUGCACUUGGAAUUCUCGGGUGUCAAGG: -3.07
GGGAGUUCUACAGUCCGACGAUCCCUGUGCUACACAUCGUAUGUACCGAAUCAAACCCCCAAACCCCCCCAAAUUUUUUUAAAAAAGUAUUAUGUUACGCCGUUCGGAUCUGCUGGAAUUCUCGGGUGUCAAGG: 1.36
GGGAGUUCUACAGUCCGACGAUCACCAUGCAGGUGAAAAUCUUUGGGAAGUGGGGCAAGGGGGGGAUAGGGAGGGGGGUAACACUUUGGGAACAGGUGGUCCCAGGUCGUUUCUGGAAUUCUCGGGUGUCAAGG: 1.24
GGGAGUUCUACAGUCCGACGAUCACCAUGCAGGUGGGCAUCUUUGGGAAGUGGGGCAAGGGGGGGAUGGGGAGGGGGGUAACACUUUGGGAACAGGUGGUCCCAGGUCGUUUCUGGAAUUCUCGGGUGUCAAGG: 1.45

Study 2 — method: protein binding microarray; molecule type: double-stranded DNA, one strand shown; sample: in vitro; concentration: not given; baseline: not given; direction: higher = stronger binding; quantity: E-score
Target: Histone acetyltransferase KAT6A, winged helix 2, GST fusion (KAT6A, Homo sapiens, UniProt Q92794, residues 85-181)
Notes: 8-mer, flanks averaged, mean of 2 arrays, mostly near background
Target sequence (chain): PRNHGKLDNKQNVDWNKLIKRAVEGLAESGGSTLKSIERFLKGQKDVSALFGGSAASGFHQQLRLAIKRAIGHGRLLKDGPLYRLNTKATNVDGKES
GTCGCCAA: 0.11
AAAACAGA: 0.011
GCACGTAA: -0.206
GCATTAAA: 0.038
CCCGTCAG: -0.073
CCGACGAC: 0.124
AGCTCCGA: 0.0852
AAACCAAA: 0.243
TAGCTTAA: -0.0148
CAAAGAAC: 0.21
TCCGCAAA: 0.0801
CTAATATC: 0.0283
CACTTGGG: 0.0427
GGCTAGAA: -0.102
CCACGGCG: 0.226
ACGCTCCT: 0.0113
CTGGACCC: -0.0519
AAATTGAG: -0.0587
ACGGATTA: -0.168
TAGGACAA: -0.115
CGGGATGC: 0.0398
TCCCGCAA: 0.0753
GATCGGCA: 0.0929
CTTGCCTC: 0.00732
ATGACAAG: -0.0788

Study 3 — method: universal PBM; molecule type: double-stranded DNA, one strand shown; sample: in vitro; concentration: not given; direction: higher = stronger binding; quantity: E-score
Target: Sal-like protein 4, full length isoform B (SALL4, Homo sapiens, UniProt Q9UJQ4-2, residues 1-616)
Notes: 8-mer, flanks averaged, mean of replicates
Residues (chain): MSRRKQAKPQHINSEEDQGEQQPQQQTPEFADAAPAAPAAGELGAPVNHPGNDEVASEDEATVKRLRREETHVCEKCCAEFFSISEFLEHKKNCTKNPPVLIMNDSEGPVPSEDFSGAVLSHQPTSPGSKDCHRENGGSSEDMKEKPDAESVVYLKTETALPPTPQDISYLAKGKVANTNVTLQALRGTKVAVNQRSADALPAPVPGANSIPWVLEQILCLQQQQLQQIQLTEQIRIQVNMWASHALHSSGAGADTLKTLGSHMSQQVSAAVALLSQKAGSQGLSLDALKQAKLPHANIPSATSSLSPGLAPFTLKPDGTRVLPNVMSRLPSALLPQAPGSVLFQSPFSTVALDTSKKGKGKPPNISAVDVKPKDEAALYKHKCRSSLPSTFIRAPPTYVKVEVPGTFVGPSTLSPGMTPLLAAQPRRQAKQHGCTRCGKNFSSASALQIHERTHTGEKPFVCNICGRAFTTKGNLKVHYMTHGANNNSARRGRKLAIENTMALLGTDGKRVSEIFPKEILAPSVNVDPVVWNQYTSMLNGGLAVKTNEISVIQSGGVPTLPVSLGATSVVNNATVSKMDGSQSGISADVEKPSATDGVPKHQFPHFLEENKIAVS
CATCTAGA: 0.0591
CAGCTTAA: -0.0187
CAGTTGTA: 0.0385
ATCTGTAG: -0.0101
TAAAATCA: 0.228
ATCGGAGG: -0.0672
CTGGATTC: -0.102
AGCAAGAC: 0.0484
CACGGGAG: -0.174
ACGCTTCC: -0.129
GTCTGCAC: -0.108
TACAGGTA: 0.141
ACTATCCA: 0.0931
CGCACGTC: -0.134
GGCGTGGA: -0.242
AGCAGATA: 0.0531
AACACAAC: 0.134
GTTCTTAA: 0.0461
AGTATGAA: 0.236
ATTCCCCC: -0.0813
ATGGGCCC: -0.348
ACCCGCCG: -0.26
TCAGGGCA: -0.153
CACTCGAG: -0.119
ATGACTCG: 0.0718

Study 4 — method: RNA Bind-n-Seq; molecule type: RNA; sample: in vitro; concentration: 365 nM; baseline: no-protein control; direction: higher = stronger binding; quantity: RBNS enrichment (R)
Target: RNA binding protein fox-1 homolog 2, RRM domain, GST-SBP tag (RBFOX2, Homo sapiens, UniProt O43251-10, residues 100-194)
Notes: natural RNA segment, single round, ends assumed
Residues (chain): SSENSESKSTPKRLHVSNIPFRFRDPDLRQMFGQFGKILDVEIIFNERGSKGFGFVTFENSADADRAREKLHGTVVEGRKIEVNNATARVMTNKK
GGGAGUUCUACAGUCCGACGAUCUUCUGUGAAGCCCUUUGCCUGUAGAGCCAGCCUUGGUUGGACCUAUUGCCAGGAAUGUUUCAGCUGCAGUUGAAGAGCCUGACAAGUGAAGUUGUAAACACAGUGUGGUUUGGAAUUCUCGGGUGCCAA: 0.249
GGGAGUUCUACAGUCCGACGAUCAGUGCUAUGAAUGUAACUUAAAACUAUAAACUUGAAGUUUUUAUUCUAUAUGCCCCUUAAUAGACUGUGGUUCCUGACGCACACUGUUAGGUCAUUAUUUUGUUGUACCAUGGAAUUCUCGGGUGCCAA: 0.534
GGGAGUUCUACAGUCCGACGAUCGUCCAGGGAAGAAGCCACCUCAAGACAUAUGAGGGGUGCCCUGGGCUAAUGUUAGGGCUUAAUUUUCUCAAAGCCUGACCUUUCAAAUCCAUGAUGAAUGCCAUCAGUCCUGGAAUUCUCGGGUGCCAA: 0.511
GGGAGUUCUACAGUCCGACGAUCACAGCCACUGUCACCGUCUCCUCUAGAGCUCACUUGAGCCAGGCCCCUAGCCAGGCUGUGGCUGUCCCUGGGCAUGCUGCAGUCCUCCUGUCCCUUCUCCCCAGUCAGUAUGGAAUUCUCGGGUGCCAA: 0.369
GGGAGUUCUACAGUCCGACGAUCAGAAGACAGAAGGAAAGCUGAGAGCUGGCCCGACAUGGUCUGGGACACAGAGUUGGAGCUGGCACUGAAGAUCUCCAGGGACUUCAGAGACCAAUAAAAGCCCAUAGGGAUGGAAUUCUCGGGUGCCAA: 0.358
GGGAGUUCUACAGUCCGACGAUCAAGUCAGCCAGACACCUUGUACUGGGCACGCGUCAGACCACAGCCGGCCGUUUCCUUUCUUUAGCCAGCCGUCCUGGUACUGUAGCUUAGGGGUUGAUGGUGGAUGAAAUUGGAAUUCUCGGGUGCCAA: 0.226
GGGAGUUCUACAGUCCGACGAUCGGCUAAUCACUAGAUUAGAAAACACGCAAUAUGAUGCGGCCAACGGCAUGGACGACGAGGAGGACUUCAACAAUUCACCCGCGCUGGGGAACAACAGCCCGUGGAACAGUUGGAAUUCUCGGGUGCCAA: 0.825
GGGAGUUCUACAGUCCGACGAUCGGGGUACCCCCUUUGCACUUUGACCCUCCUGAUGACGUGGGGCCCAGCACAGGGACCAAGAAGGCUGGUGGAAGUGCACUCAGACCCCAGGUGGGAGGGCUCUGGGAGUGUGGAAUUCUCGGGUGCCAA: 0.496

For quick reference, copied from above (study 3):
ATCTGTAG: -0.0101
TAAAATCA: 0.228
ATCGGAGG: -0.0672
CTGGATTC: -0.102
AGCAAGAC: 0.0484
CACGGGAG: -0.174
